Measurements pooled from the literature.
Parts stem from different laboratories: compare values within a part only.

Study 1
Target: Protein C-ets-1 (ETS1, Homo sapiens, UniProt P14921, residues 1-441, full length assumed)
Technique: protein-binding microarray
Form: double-stranded DNA, one strand shown
Medium: in vitro
Tested at: not given
Setting: k-mer, scored over probes, only values ≥0.25
Reading: higher = stronger binding
Target sequence (chain): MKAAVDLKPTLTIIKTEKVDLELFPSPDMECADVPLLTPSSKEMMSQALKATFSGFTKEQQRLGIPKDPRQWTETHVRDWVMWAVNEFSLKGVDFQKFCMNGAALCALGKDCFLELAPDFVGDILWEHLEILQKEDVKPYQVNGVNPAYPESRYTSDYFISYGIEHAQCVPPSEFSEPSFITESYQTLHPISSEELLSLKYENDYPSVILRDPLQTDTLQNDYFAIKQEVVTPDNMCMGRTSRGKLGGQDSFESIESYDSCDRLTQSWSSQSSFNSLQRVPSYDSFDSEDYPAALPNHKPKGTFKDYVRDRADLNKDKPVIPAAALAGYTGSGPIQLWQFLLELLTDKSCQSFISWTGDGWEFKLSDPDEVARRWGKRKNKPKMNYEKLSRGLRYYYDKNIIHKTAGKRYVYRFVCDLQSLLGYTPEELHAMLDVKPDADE
| Sequence | E-score |
| --- | --- |
| ACCGACAG | 0.26 |
| ACGTCCTG | 0.401 |
| GGATGCTA | 0.324 |
| GAAGCTTC | 0.311 |
| ATCACCGG | 0.295 |

Study 2
Target: Prothrombin, mature alpha-thrombin (F2, Homo sapiens, UniProt P00734)
Technique: aptamer microarray, sandwich
Form: DNA with 2'F-ANA
Medium: in vitro
Tested at: 200 nM
Setting: whole 15-mer aptamer, many near background
Together with: Cy3 exosite-II aptamer, 400 nM
Reading: higher = stronger binding
| Sequence | mean fluorescence intensity |
| --- | --- |
| GGTTGGTGTGGTTGG (2'F-ANA at 2 3 4 9 11 12 14 15) | 269 a.u. |
| GGTTGGTGTGGTTGG (2'F-ANA at 4 5 6 10 11 12 14 15) | 46.9 a.u. |
| GGTTGGTGTGGTTGG (2'F-ANA at 1 3 4 7 10 12 13 14) | 52.7 a.u. |
| GGTTGGTGTGGTTGG (2'F-ANA at 3 5 7 8 9 10 11 12 13 14) | 56.4 a.u. |

Study 3
Target: Sal-like protein 4, full length isoform A (SALL4, Homo sapiens, UniProt Q9UJQ4, residues 1-1053)
Chain of UniProt Q9UJQ4 (whole entry, looked up): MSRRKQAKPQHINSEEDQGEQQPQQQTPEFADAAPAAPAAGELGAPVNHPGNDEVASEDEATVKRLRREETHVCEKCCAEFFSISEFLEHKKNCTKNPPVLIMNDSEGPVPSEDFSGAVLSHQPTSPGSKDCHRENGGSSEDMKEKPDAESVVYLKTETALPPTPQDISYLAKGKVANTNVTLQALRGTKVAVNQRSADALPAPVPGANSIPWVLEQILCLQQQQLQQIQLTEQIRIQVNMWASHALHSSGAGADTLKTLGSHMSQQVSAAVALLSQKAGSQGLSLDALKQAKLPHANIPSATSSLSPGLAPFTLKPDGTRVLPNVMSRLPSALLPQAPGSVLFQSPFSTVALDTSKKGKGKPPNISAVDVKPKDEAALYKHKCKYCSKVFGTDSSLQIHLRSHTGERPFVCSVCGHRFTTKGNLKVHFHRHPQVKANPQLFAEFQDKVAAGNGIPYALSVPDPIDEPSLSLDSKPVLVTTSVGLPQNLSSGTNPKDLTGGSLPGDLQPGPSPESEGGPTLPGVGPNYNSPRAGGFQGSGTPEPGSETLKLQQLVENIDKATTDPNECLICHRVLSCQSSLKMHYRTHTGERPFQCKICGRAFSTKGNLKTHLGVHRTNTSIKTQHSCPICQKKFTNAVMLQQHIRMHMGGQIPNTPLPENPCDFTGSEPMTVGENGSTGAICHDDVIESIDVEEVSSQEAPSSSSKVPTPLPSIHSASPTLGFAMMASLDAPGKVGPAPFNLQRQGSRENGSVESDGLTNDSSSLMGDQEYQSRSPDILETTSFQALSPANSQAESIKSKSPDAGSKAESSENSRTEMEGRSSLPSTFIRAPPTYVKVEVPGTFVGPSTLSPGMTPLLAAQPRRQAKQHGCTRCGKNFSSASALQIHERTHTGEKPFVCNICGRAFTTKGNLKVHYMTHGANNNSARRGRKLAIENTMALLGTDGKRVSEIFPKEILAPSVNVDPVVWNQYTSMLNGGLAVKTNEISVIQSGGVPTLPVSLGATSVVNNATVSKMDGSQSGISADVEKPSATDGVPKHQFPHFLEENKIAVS
Technique: universal PBM
Form: double-stranded DNA, one strand shown
Medium: in vitro
Tested at: 600 nM
Setting: 8-mer, flanks averaged, mean of replicates
Reading: higher = stronger binding
| Sequence | E-score |
| --- | --- |
| GCCCGCGA | -0.305 |
| GCTGCCTA | -0.158 |
| TAACTACA | 0.176 |
| AACACTCT | 0.134 |
| GAGTGCTA | -0.0625 |

Other studies, line by line
| Molecule | target | test | system | conditions | scale | quantity | value |
| --- | --- | --- | --- | --- | --- | --- | --- |
| PhoQ, residues 284 288 289 292 302 303 SSCLAV | PhoP, residues 12 14 15 18 19 SQCLL (Escherichia coli, UniProt P23836) | Sort-seq, measured: YFP reporter | E. coli | PhoQ-PhoP variant library, together with: 10 µM Mg2+ | relative to: high Mg2+ state, higher = stronger signaling | fold induction | 8.53 |

Some of these lines once more (study 1):
| Sequence | E-score |
| --- | --- |
| GGATGCTA | 0.324 |
| GAAGCTTC | 0.311 |
